Assay results of several laboratories.
Several values in a cell are separate wells, animals, samples, runs or records.
Target: Membrane-associated tyrosine- and threonine-specific cdc2-inhibitory kinase (PKMYT1, Homo sapiens, UniProt Q99640)

Compound | assay | test system | setting | scale | quantity | result
COc1c(Cl)cccc1Nc1c(-c2ccncc2C#C[C@@]2(C)CCCN2C(=O)/C=C/CN(C)C)[nH]c2c1C(=O)NCC2 | binding, competition with immobilised ligand |  | 3 µM |  | remaining binding | 87%
CNC1C[S+]2CC[S+]3CC[S+](C1)[Ru-4]321([N]=C=S)[n]2c3ccc(OC)cc3c3c4c(c5cc(F)c[n+]1c5c32)C(=O)NC4=O (stereo not drawn) | KinomeScan |  | 0.1 µM | relative to: untreated | remaining binding | 92%
COc1cc(Nc2nccc(-c3cnn4nc(OC)ccc34)n2)cc(C(F)(F)F)c1 | binding, competition with immobilised ligand |  | 1 µM |  | remaining binding | 95%
CCN1CCN(Cc2ccc(C(=O)Nc3ccc(C)c(NCc4cnc5[nH]ccc5c4OC)c3)cc2C(F)(F)F)CC1 | binding, competition with immobilised ligand |  | 1 µM |  | remaining binding | 92%
Cc1ccc(-c2c(/C=C(\C#N)C(=O)NC(C)C)n(CCCO)c3ncnc(N)c23)cc1 | cell-free assay, competition with immobilised ligand |  | 1 µM |  | remaining binding | 92%
N[C@H]1CC[C@H](Nc2nccc(-c3cccnc3Oc3ccc(NC(=O)NC4CC4)c4ccccc34)n2)CC1 | kinobead competition pulldown | HEK293/HCT116 lysate mixture | 10 µM, 1 h, 4 °C | lower = stronger competition | log2 LFQ intensity | 20.6 and 21.1 and 19.7 and 19.3
C=CC(=O)N1CCCC(n2c(=O)c3ncccc3n(Cc3ccc(Oc4ccccc4)cc3)c2=O)C1 (stereo not drawn) | cell-free assay, competition with immobilised ligand |  | 1 µM |  | remaining binding | 94%
CN1CCN(Cc2ccc(-c3ccc(CO[C@H]4CCC[C@@H]4NC(=O)c4cc(-c5cnn(C)c5)cnc4N)cc3)cc2)CC1 | enzyme activity, inhibitor |  | 0.1 µM |  | inhibition | 5%
COc1cc(Nc2nc(C)cc(-c3cnn4nc(OC)ccc34)n2)cc(C(F)(F)F)c1 | inhibitor |  | 1 µM | relative to: control | remaining activity | 97%
C=CC(=O)N1CCc2ccc(-n3c(=O)ccc4cnc5ccc(-c6cnn(C)c6)cc5c43)cc21 | KINOMEscan |  | 1 µM | relative to: DMSO control | remaining binding | 93%
Nc1ncc2c(n1)-c1c([nH]c3ccc(C4=CCOCC4)cc13)CCC2 | binding, competition with immobilised ligand |  | 1 µM |  | remaining binding | 97%
CNC(=O)C1CCN(c2cc(C)c(F)cc2NC(=O)c2ccc(-c3cc(O)ccc3C)c(C)c2)CC1 | binding, competition with immobilised ligand |  | 1 µM |  | remaining binding | 100%
C=CC(=O)N1Cc2nc(-c3cc(-c4cc(Cl)cnc4Cl)c(F)cc3F)n(-c3ccncn3)c2C1 | cell-free assay, inhibitor |  | 1 µM |  | inhibition | -0.2%
CC(C)=CC1OC(C)(C)C2C=C3C(=O)C(Cl)=CC(O)C3C3C(O)C4OC4C(=O)C132 (stereo not drawn) | cell-free assay, competition with immobilised ligand |  | 10 µM |  | remaining binding | 97%
Cc1cnc2nc1Nc1cccc(c1)COC/C=C/COCc1cc(ccc1OCCN1CCOCC1)N2 | cell-free assay |  | 0.1 µM |  | remaining signal | 95%

Excerpt of the above:
Compound | assay | test system | setting | scale | quantity | result
C=CC(=O)N1CCc2ccc(-n3c(=O)ccc4cnc5ccc(-c6cnn(C)c6)cc5c43)cc21 | KINOMEscan |  | 1 µM | relative to: DMSO control | remaining binding | 93%
